{"data": "Measured values of several laboratories", "note": "Parts stem from different laboratories: compare values within a part only. Positions count from the first letter of the parent shown."}
{"data": "Sample 1", "target": "CCND3, cyclin fold, Cln2 fusion (human)", "method": "yeast growth competition, sequencing", "sample": "yeast", "notes": "weak parent motif", "relative to": "not given", "direction": "higher = stronger binding", "starting sequence": "BORA docking peptide (human); SSLRRKLFLDGNG; partner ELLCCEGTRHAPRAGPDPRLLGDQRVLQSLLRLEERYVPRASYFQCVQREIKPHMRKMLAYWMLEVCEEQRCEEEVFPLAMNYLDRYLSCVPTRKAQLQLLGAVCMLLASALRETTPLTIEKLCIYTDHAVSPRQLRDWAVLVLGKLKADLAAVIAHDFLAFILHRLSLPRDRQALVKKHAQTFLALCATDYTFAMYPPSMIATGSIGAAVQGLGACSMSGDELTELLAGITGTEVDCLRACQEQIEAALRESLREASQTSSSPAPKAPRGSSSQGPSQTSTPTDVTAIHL"}
{"Variant": "R5A", "normalised enrichment score": 0.0832}
{"Variant": "S1A", "normalised enrichment score": 0.0949}
{"Variant": "K6A", "normalised enrichment score": 0.202}
{"Variant": "F8A", "normalised enrichment score": 0.18}
{"Variant": "L7A", "normalised enrichment score": 0.11}
{"Variant": "R5K", "normalised enrichment score": 0.536}
{"Variant": "L9F", "normalised enrichment score": 0.299}
{"Variant": "R4A", "normalised enrichment score": 0.104}
{"data": "Sample 2", "target": "Histone acetyltransferase KAT6A, winged helix 2, GST fusion (KAT6A, Homo sapiens, UniProt Q92794, residues 85-181)", "method": "protein binding microarray", "molecule type": "double-stranded DNA, one strand shown", "sample": "in vitro", "tested at": "not given", "notes": "8-mer, flanks averaged, mean of 2 arrays, mostly near background", "relative to": "not given", "direction": "higher = stronger binding", "Target sequence (chain)": "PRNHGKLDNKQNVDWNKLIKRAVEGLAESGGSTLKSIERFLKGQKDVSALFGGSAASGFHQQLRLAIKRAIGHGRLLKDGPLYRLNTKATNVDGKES"}
{"Strand": "CAGTAACG", "E-score": -0.0822}
{"Strand": "CATATTTC", "E-score": -0.136}
{"Strand": "TCACACGA", "E-score": -0.0393}
{"Strand": "AAGGGACG", "E-score": -0.134}
{"Strand": "AAATGCCA", "E-score": 0.0334}
{"Strand": "CAATGCCA", "E-score": -0.00455}
{"Strand": "GTTGTTAA", "E-score": 0.00281}
{"Strand": "GCGGTACC", "E-score": 0.171}
{"Strand": "AAAGACTA", "E-score": -0.0932}
{"Strand": "GCCTTGCC", "E-score": 0.17}
{"Strand": "GTTAATGA", "E-score": -0.0369}
{"Strand": "ACAGATAG", "E-score": -0.133}
{"Strand": "CGTGGCTA", "E-score": 0.0112}
{"Strand": "ACTACTTC", "E-score": -0.135}
{"Strand": "AATTACGA", "E-score": -0.0355}
{"Strand": "ATGTTATG", "E-score": -0.0105}
{"Strand": "GAATGAAC", "E-score": 0.0644}
{"Strand": "ATGATTTA", "E-score": 0.0469}
{"Strand": "CTCCGTTC", "E-score": 0.0673}
{"Strand": "AAAATGAA", "E-score": 0.0201}
{"Strand": "AATAGTTC", "E-score": 0.00157}
{"data": "Sample 3", "target": "ABI1, truncated, D143A, DHFR fusion (Arabidopsis thaliana)", "method": "DHFR PCA, deep sequencing", "sample": "yeast", "notes": "methotrexate growth selection, single substitutions", "with": "(+)-ABA 0.032 µM", "relative to": "wild-type fitted maximum", "direction": "higher = stronger binding", "starting sequence": "PYL1, truncated, DHFR fusion (Arabidopsis thaliana); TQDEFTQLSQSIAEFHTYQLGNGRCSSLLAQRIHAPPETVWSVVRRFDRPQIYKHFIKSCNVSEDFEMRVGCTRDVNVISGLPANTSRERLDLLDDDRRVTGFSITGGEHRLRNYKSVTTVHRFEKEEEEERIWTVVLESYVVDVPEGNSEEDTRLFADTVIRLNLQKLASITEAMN; partner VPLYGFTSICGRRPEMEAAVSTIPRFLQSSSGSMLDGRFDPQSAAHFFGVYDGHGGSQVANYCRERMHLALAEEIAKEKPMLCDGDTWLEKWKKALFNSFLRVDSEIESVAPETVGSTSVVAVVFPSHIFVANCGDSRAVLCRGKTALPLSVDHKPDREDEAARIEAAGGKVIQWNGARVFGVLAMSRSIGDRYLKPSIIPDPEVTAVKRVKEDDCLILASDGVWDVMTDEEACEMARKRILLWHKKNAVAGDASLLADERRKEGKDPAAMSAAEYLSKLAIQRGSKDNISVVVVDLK"}
{"Variant": "I33V", "relative binding score": "7.59%"}
{"Variant": "D65E", "relative binding score": "10.4%"}
{"Variant": "A35Y", "relative binding score": "-2.92%"}
{"Variant": "H122Q", "relative binding score": "-6.18%"}
{"Variant": "E14A", "relative binding score": "0.487%"}
{"Variant": "S11H", "relative binding score": "10.1%"}
{"Variant": "E130G", "relative binding score": "26.6%"}
{"Variant": "T135L", "relative binding score": "-3.31%"}
{"Variant": "Y53P", "relative binding score": "-1.72%"}
{"Variant": "W134G", "relative binding score": "15.4%"}
{"Variant": "A30C", "relative binding score": "13%"}
{"Variant": "T120Q", "relative binding score": "0.515%"}
{"Variant": "F15I", "relative binding score": "-6.18%"}
{"data": "Other studies, line by line"}
{"Substance": "HSPA5 (Homo sapiens, UniProt P11021)", "target or system": "MANF (Homo sapiens, UniProt P55145)", "assay": "cross-linking MS", "system": "cells", "conditions": "with: BSPNO", "quantity": "cross-linked residues", "value": "K185 to K163"}
{"Substance": "PhoQ, residues 284 288 289 292 302 303 ALAMYF", "target or system": "PhoP, residues 12 14 15 18 19 GQALL (Escherichia coli, UniProt P23836)", "assay": "Sort-seq, measured: YFP reporter", "system": "E. coli", "conditions": "PhoQ-PhoP variant library, with: 10 µM Mg2+", "scale": "relative to: high Mg2+ state, higher = stronger signaling", "quantity": "fold induction", "value": 27.2}
{"note": "A few entries again (sample 2):"}
{"Strand": "TCACACGA", "E-score": -0.0393}
{"Strand": "AATAGTTC", "E-score": 0.00157}
{"Strand": "AAAGACTA", "E-score": -0.0932}
{"Strand": "GCGGTACC", "E-score": 0.171}
{"Strand": "CTCCGTTC", "E-score": 0.0673}
{"Strand": "CAATGCCA", "E-score": -0.00455}
